Published values from different studies.
Protocols differ between the studies behind these lines. ± marks the error that the study gave. The star is where a group is joined.
Mode: substrate

| Substance | target | test | conditions | Km |
| --- | --- | --- | --- | --- |
| CC(=O)OCOc1ccc2c(c1)Oc1cc(OCOC(C)=O)ccc1C21OC(=O)c2ccccc21 | porcine liver esterase | fluorogenic hydrolysis | pH 7.4, 23 °C, DMSO up to 1.5% | 3.2 µM |
| OO | ancestral DyP peroxidase R390K | peroxidase activity | pH 3.0, 25 °C, together with: ABTS 25 µM | 31 µM |
| N[C@@H](Cc1c[nH]cn1)C(=O)O | HARS1 (Homo sapiens, UniProt P12081, V155G) | – | pH 7.5, together with: 10 mM ATP, 5 µM tRNAHis | 687 ± 200 µM |
| Nc1ncnc2c1ncn2[C@@H]1O[C@H](COP(=O)(O)OP(=O)(O)OP(=O)(O)O)[C@@H](O)[C@H]1O | kinesin-II double chimera, Caenorhabditis elegans | microtubule gliding velocity | – | 540 µM |
| Nc1ncnc2c1ncn2[C@@H]1O[C@H](COP(=O)(O)OP(=O)(O)OP(=O)(O)O)[C@@H](O)[C@H]1O | tsaD, with TsaB and TsaE (Escherichia coli, UniProt P05852) | – | together with: TC-AMP | 14 µM |
| Nc1ccc2c(O)c(N=Nc3ccc(N=Nc4ccc(N=Nc5cc(S(=O)(=O)O)c6cccc(S(=O)(=O)O)c6c5)c5ccccc45)c4ccc(S(=O)(=O)O)cc34)c(S(=O)(=O)O)cc2c1 | ancestral dye-decolorizing peroxidase | peroxidase activity, steady-state kinetics | 25 °C, pH 3.0 ABTS, 4.0 others | 13 µM |
| Nc1ncnc2c1ncn2[C@@H]1O[C@H](COP(=O)(O)OP(=O)(O)OP(=O)(O)O)[C@@H](O)[C@H]1O | Unconventional myosin-Ic, one IQ, actin-free (Myo1c, Rattus norvegicus, UniProt Q63355) | – | – | 184 ± 22 µM |
| CCCCCCCC(=O)SCCNC(=O)CCNC(=O)[C@H](O)C(C)(C)COP(=O)(O)OP(=O)(O)OC[C@H]1O[C@@H](n2cnc3c(N)ncnc32)[C@H](O)[C@@H]1OP(=O)(O)O | Membrane-bound ghrelin O-acyltransferase MBOAT4 (Mus musculus, UniProt P0C7A3) | – | – | 0.4 to 0.8 µM |
| O=S(=O)(O)c1cc(Nc2nc(Cl)nc(Cl)n2)c2c(O)c(N=Nc3ccccc3)c(S(=O)(=O)O)cc2c1 | ancestral dye-decolorizing peroxidase | peroxidase activity, steady-state kinetics | 25 °C, pH 3.0 ABTS, 4.0 others | 6.8 µM |
| NC(=O)C1=CN([C@@H]2O[C@H](COP(=O)(O)OP(=O)(O)OC[C@H]3O[C@@H](n4cnc5c(N)ncnc54)[C@H](OP(=O)(O)O)[C@@H]3O)[C@@H](O)[C@H]2O)C=CC1 | Saccharopine dehydrogenase [NADP(+), L-glutamate-forming], D126A (LYS9, Saccharomyces cerevisiae, UniProt P38999) | enzyme activity | pH 7.0, 25 °C, D126A mutant, together with: AASA and L-glutamate saturating | 44 ± 5 µM |
| C/C1=C2/N[C@H]([C@H](CC(N)=O)[C@@]2(C)CCC(=O)NC[C@@H](C)OP(=O)(O)O[C@H]2[C@@H](O)[C@@H](n3cnc4cc(C)c(C)cc43)O[C@@H]2CO)[C@]2(C)N=C(/C(C)=C3N=C(/C=C4N=C1[C@@H](CCC(N)=O)C\4(C)C)[C@@H](CCC(N)=O)[C@]\3(C)CC(N)=O)[C@@H](CCC(N)=O)[C@]2(C)CC(N)=O.[Co] | meaD (Methylorubrum extorquens, UniProt C5AZG1) | – | together with: ATP 1 mM | 0.4 ± 0.1 µM |
| Ac-QDEVD-pNA (N-acetyl, C-pNA; pNA = O=[N+]([O-])c1ccc(N*)cc1) | Caspase-6 (CASP6, Homo sapiens, UniProt P55212) | colorimetric p-nitroanilide release | pH 7.25 | 1070 ± 110 µM |

Some of these lines once more:
| Substance | target | test | conditions | Km |
| --- | --- | --- | --- | --- |
| N[C@@H](Cc1c[nH]cn1)C(=O)O | HARS1 (Homo sapiens, UniProt P12081, V155G) | – | pH 7.5, together with: 10 mM ATP, 5 µM tRNAHis | 687 ± 200 µM |
